Measured values pooled from the literature.
Parts stem from different laboratories: compare values within a part only. Numbers after ± are the reported error. Ends that are not written are not given here.

Series 1 — SMILES: CN(C)S(=O)(=O)c1cccc(-n2sc3ccccc3c2=O)c1
rep main protease: Replicase polyprotein 1ab, main protease (rep, Severe acute respiratory syndrome coronavirus 2, UniProt P0DTD1)
The inhibition was 101% (rep main protease; enzyme activity, inhibitor; 20 µM, primary screen).
For rep main protease; enzyme activity, inhibitor; 20 µM, hit confirmation: inhibition read 110%.
SARS-CoV-2; cytopathic effect; Vero E6; 10 µM — inhibition: -1.9%.

Series 2 — mode: inhibitor; tested at: 20 µM
Target: Replicase polyprotein 1ab, nsp13 helicase (rep, Severe acute respiratory syndrome coronavirus 2, UniProt P0DTD1)
`O=C1c2c(O)cccc2C([C@@H]2O[C@H](CO)[C@@H](O)[C@H](O)[C@H]2O)c2cc(CO)cc(O)c21` (stereo partly drawn) has an inhibition of 12.1%.
`Nc1nc(F)nc2c1ncn2[C@@H]1O[C@H](COP(=O)(O)O)[C@@H](O)[C@@H]1O` has an inhibition of 2.71%.
With `COc1cc([C@@H]2c3cc4c(cc3[C@H](O)[C@H]3COC(=O)[C@H]23)OCO4)cc(OC)c1OC` the inhibition was 2.22%.
For `CCCN1CCCC[C@H]1C(=O)Nc1c(C)cccc1C`, the inhibition was 6.16%.
`Nc1nc2c(c(N3CCNCC3)n1)CCC1=C2[C@H]2CCCC[C@H]2O1` has an inhibition of -2.76%.
With `CN(C)C(=O)C(=O)c1cn(C)c2cc(Cl)c(C(=O)N3CCC(Cc4ccc(F)cc4)CC3)cc12` the inhibition was 4.09%.
`CC(C)=CCOc1ccc(/C=C/C(=O)c2ccc(OCC=C(C)C)cc2OCC(=O)O)cc1` has an inhibition of 5.74%.
`OC(CN1CCN(c2cccc(Cl)c2)CC1)C(c1ccccc1)c1ccccc1` (stereo not drawn) has an inhibition of -5.17%.
`C[C@@]1(C(=O)N[C@@H](CCC(=O)O)C(=O)O)CCCN1C(=O)CN` gave an inhibition of 9.5%.
The inhibition of `CC(C)(CCCCCC(O)CCCCCC(C)(C)C(=O)O)C(=O)O` is reported as 12.4%.
The inhibition of `Fc1cc(-c2cccc3ncc(-c4cnn(C5CCNCC5)c4)nc23)cc(F)c1CN1CCOCC1` is reported as 36.2%.
`C[C@@H](N[C@H]1CCCC[C@@H]1NC(=O)c1ccc(Cl)cc1)c1cccc2ccccc12` has an inhibition of 1.09%.
`NC[C@H](CC(=O)O)c1ccc(Cl)cc1` gave an inhibition of 6.27%.
`CC(C)(C)C(O)/C=C/c1ccc2c(c1)OCO2` (stereo not drawn) gave an inhibition of 8.09%.
`CON` gave an inhibition of 2.7%.
With `CCC(=O)O[C@H](CC(=O)O)C[N+](C)(C)C` the inhibition was 5.02%.
`Cc1cc(O)c2c(=O)c3c(O)cc(O)c4c5c(O)cc(O)c6c(=O)c7c(O)cc(C)c8c1c2c(c34)c(c78)c65` has an inhibition of 1.52%.
For `CC(C)NC(=O)N1CC[C@H](NC2=Nc3cc(F)ccc3N(CC(F)F)c3ccc(Cl)cc32)C1`, the inhibition was 4.02%.
`C=CC(=O)Nc1cccc(Nc2nc(Nc3ccc(N4CCN(C(C)=O)CC4)cc3OC)ncc2C(F)(F)F)c1` has an inhibition of 10.3%.
The inhibition of `NCCc1c[nH]cn1` is reported as 4.82%.
With `CNC(=O)c1c(I)c(C(=O)NCC(=O)Nc2c(I)c(C(=O)O)c(I)c(C(=O)NCCO)c2I)c(I)c(N(C)C(C)=O)c1I` the inhibition was -1.4%.

Single results of other studies
rep main protease: Replicase polyprotein 1ab, main protease (rep, Severe acute respiratory syndrome coronavirus 2, UniProt P0DTD1)
B1: Urtica dioica agglutinin; sequence looked up; chain QRCGSQGGGGTCPALWCCSIWGWCGDSEPYCGRTCENKCWSGERSDHRCGAAVGNPPCGQDRCCSVHGWCGGGNDYCSGSKCQYRCSSSVRGPRVALSGNSTANSIGNVVVTEPLFDQMFSHRKDCPSQGFYSYHSFLVAAESFPAFGTIGDVATRKREVAAFLAHISQATSGERSDVENPHAWGLCHINTTTVTENDFCTSSDWPCAAGKKYSPRGPIQLTHNFNYGLAGQAIGEDLIQNPDLVEKDPIISFKTALWFWMSQHDNKPSCHDIVLNANSAANRIPNKGVIGNIISRAFGHDDFAVRSSSIGFYKRYCDMLGVSYGHDLKYWFDNTPSSEFQRIQMRVAA
The EC50 of `CO[C@H]1CC[C@H](n2c([C@@H]3CCCC(=O)N3c3ccc(F)c(F)c3)nc3cc(-c4c(C)noc4C)ccc32)CC1` (relative stereo) is reported as > 100 µM (SARS-CoV-2; viral replication, GFP plate reader screen; BetaCov/Belgium/GHB-03021/2020; cell-based).
`CC[C@H](C)[C@H](NC(=O)[C@H](CC(C)C)NC(=O)[C@H](Cc1c[nH]c2ccccc12)NC(=O)[C@H](CCC(N)=O)NC(=O)[C@@H](NC(=O)[C@H](Cc1ccccc1)NC(=O)[C@H](C)NC(=O)[C@H](CCCCNC(=O)COCCOCCNC(=O)COCCOCCNC(=O)CC[C@H](NC(=O)CCCCCCCCCCCCCCCCCCC(=O)O)C(=O)O)NC(=O)[C@H](CCC(N)=O)NC(=O)[C@H](C)NC(=O)[C@@H](NC(=O)[C@H](CCCCN)NC(=O)[C@H](CC(=O)O)NC(=O)[C@H](CC(C)C)NC(=O)C(C)(C)NC(=O)[C@@H](NC(=O)[C@H](CO)NC(=O)[C@H](Cc1ccc(O)cc1)NC(=O)[C@H](CC(=O)O)NC(=O)[C@H](CO)NC(=O)[C@@H](NC(=O)[C@H](Cc1ccccc1)NC(=O)[C@@H](NC(=O)CNC(=O)[C@H](CCC(=O)O)NC(=O)C(C)(C)NC(=O)[C@@H](N)Cc1ccc(O)cc1)[C@@H](C)O)[C@@H](C)O)[C@@H](C)CC)[C@@H](C)CC)C(C)C)C(=O)N[C@@H](C)C(=O)NCC(=O)NCC(=O)N1CCC[C@H]1C(=O)N[C@@H](CO)C(=O)N[C@@H](CO)C(=O)NCC(=O)N[C@@H](C)C(=O)N1CCC[C@H]1C(=O)N1CCC[C@H]1C(=O)N1CCC[C@H]1C(=O)N[C@@H](CO)C(N)=O` gave an abdominal distension of 28.6% (healthy human; 8.0 mg, single ascending dose).
`O=c1ccn([C@@H]2O[C@](F)(CO)[C@@H](O)[C@H]2O)c(=O)[nH]1` gave an EC50 of 0.11 ± 0.1 µM (Junin virus; viral replication; Vero C1008, Romero).
`COC(=O)N[C@H](C(=O)N[C@@H](Cc1ccccc1)[C@@H](O)CN(Cc1ccc(-c2ccccn2)cc1)NC(=O)[C@@H](NC(=O)OC)C(C)(C)C)C(C)(C)C.O=S(=O)(O)O` gave an inhibition of 2.15% (rep main protease; reporter gene (Gaussia luciferase), inhibitor; 20 µM).
`COc1ccc2c(c1)[C@@H]1C[C@]1(C(=O)N1[C@@H]3CC[C@H]1CN(C)C3)Cn1c-2c(C2CCCCC2)c2ccc(C(=O)NS(=O)(=O)N(C)C)cc21` has an inhibition of 54.6% (SARS-CoV-2; viral replication; Vero E6, USA-WA1/2020; 2.5 µM).
The Kd of `env gp120 (HIV-1)` is reported as 0.0714 µM (CD4 26-396 (Homo sapiens, UniProt P01730); SPR).
For `QPLRKLCILHRNPGRCYQKIPAFYYNQKKKQCEGFTWSGCGGNSNRFKTIEECRRTCIRK (dendrotoxin I; ends and bridges not checked; cysteine pairing not given here; sequence looked up)`, “DTX substates ended by full opening” read 96.1% (maxi-KCa channel, rat muscle; channel block, planar bilayer single-channel; 460 nM, internal site, together with: BPTI).
`AIKLDDKDPNFKDQV` has a responding donors of 8% (human CD4 T cells; AIM; peptide).
`Nc1ccn([C@@H]2O[C@H](COP(=O)(O)OP(=O)(O)OP(=O)(O)O)[C@@H](O)[C@H]2O)c(=O)n1` gave a Km of 65 ± 10 µM (Replicase polyprotein 1ab, nsp12 with nsp7/nsp8 (rep, Severe acute respiratory syndrome coronavirus 2, UniProt P0DTD1); substrate; templating base G).
`CN1CCC(=C2c3ccccc3CCn3c(C=O)cnc32)CC1` gave a viability of 105% (HEK-293T/ACE2; concentration not given, 16 (unit not given); relative to: vehicle).
The inhibition of `CC(C)(CC(=O)N1CCCC1)NCC(=O)N1C[C@@H](F)C[C@H]1C#N` is reported as 0.0227% (rep main protease; reporter gene (Gaussia luciferase), inhibitor; 20 µM).
With `insulin human` the fold change was 1.18 (measured: RYR2 mRNA; uninfected mouse, brain; i.p., dose not given; relative to: PBS).
For `B1 (Urtica dioica agglutinin)`, the EC50 was 2.4 µg/mL (feline coronavirus; viral cytopathic effect, microscopy; CRFK).
For `Nc1ncnc2c([C@@H]3N[C@H](CO)[C@@H](O)[C@H]3O)c[nH]c12`, the inhibition was 16.6% (Chikungunya virus; viral replication; HeLa, AF 15561; 0.8 µM).
`Cc1cccc(CN2CCN(C(c3ccccc3)c3ccc(Cl)cc3)CC2)c1` (stereo not drawn) gave a selectivity index of 9 (Ebola virus Zaire; pseudovirus entry; A549; relative to: CC50 over IC50).
The EC50 of `CC(C)(C)NC[C@H](O)COc1ccccc1C1CCCC1` is reported as 15.1 µM (SARS-CoV-2; viral replication, GFP plate reader screen; cell-based).
`CN1c2ccccc2CNc2cncnc21` gave an inhibition of 42.1% (SARS-CoV-2; viral replication; Vero E6, USA-WA1/2020; 2.5 µM).
The responding donors of `SNFRVQPTESIVRFP` is reported as 9% (human CD4 T cells; AIM; peptide).
